# Published values pooled from the literature.
# Protocols differ between the studies behind these lines. Several values in a cell are separate wells, animals, samples, runs or records. ± marks the error that the study gave.
# GABA-A receptor; alpha-1/beta-3/gamma-2: GABA-A receptor; alpha-1/beta-3/gamma-2 (Homo sapiens, UniProt P14867+P18507+P28472)
# Chain of UniProt P18507 (whole entry, looked up): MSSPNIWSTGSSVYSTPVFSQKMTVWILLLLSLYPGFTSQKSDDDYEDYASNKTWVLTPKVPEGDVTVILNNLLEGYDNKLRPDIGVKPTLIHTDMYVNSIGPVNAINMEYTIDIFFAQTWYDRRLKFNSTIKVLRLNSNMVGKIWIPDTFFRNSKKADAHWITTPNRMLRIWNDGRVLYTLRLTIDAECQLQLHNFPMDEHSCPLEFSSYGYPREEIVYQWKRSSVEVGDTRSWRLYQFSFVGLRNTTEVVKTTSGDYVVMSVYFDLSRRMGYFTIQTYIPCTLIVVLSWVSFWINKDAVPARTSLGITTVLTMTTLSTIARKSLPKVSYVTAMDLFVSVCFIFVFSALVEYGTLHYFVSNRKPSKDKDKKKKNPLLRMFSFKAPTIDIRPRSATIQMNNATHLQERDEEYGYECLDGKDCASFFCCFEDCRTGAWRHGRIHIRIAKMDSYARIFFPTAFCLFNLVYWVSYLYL
# Chain of UniProt P14867 (whole entry, unmodified, looked up): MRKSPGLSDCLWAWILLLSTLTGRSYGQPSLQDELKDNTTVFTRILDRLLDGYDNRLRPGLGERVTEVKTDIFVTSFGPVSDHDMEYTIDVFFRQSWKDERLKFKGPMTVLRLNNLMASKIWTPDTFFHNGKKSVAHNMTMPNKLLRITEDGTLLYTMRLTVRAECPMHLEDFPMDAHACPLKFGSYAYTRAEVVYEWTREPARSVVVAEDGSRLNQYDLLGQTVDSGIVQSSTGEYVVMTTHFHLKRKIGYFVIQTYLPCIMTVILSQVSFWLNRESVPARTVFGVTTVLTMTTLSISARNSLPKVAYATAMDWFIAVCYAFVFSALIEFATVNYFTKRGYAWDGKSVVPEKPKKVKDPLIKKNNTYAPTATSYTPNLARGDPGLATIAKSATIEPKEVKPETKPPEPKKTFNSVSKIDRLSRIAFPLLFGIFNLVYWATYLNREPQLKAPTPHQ
# Chain of UniProt P28472 (whole entry, unmodified, looked up): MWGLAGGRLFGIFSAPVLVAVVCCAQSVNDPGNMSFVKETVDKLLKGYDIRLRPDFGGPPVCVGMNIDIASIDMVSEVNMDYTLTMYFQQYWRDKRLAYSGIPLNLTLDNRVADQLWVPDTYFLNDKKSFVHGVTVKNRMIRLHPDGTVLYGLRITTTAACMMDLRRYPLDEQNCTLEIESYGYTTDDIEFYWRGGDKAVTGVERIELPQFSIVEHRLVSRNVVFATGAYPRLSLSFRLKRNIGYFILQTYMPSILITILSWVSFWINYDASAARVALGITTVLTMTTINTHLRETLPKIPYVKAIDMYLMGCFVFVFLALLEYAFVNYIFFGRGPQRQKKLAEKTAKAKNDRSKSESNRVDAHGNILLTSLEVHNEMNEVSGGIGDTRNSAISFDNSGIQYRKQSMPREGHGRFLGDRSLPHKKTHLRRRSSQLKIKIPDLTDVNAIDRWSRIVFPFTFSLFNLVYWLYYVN
# Sterol carrier protein 2: Sterol carrier protein 2 (Homo sapiens, UniProt P22307)
# Chain of UniProt P22307 (whole entry, looked up): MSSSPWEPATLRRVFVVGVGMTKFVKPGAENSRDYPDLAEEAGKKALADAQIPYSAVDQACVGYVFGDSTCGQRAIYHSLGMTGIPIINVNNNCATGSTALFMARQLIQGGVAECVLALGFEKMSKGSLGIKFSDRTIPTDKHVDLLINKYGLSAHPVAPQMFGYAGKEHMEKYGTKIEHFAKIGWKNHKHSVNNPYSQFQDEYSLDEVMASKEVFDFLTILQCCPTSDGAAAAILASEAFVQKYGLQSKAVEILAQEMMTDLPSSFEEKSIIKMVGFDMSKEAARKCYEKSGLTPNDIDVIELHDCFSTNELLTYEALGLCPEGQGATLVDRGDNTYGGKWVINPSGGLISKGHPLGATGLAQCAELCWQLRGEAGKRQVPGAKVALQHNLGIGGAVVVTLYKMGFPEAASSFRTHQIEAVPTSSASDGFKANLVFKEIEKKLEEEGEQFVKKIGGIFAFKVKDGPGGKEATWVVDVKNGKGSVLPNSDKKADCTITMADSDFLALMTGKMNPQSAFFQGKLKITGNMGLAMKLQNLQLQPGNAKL
# GABA-A receptor; alpha-1/beta-2/gamma-2: GABA-A receptor; alpha-1/beta-2/gamma-2 (Homo sapiens, UniProt P14867+P18507+P47870)
# Chain of UniProt P47870 (whole entry, looked up): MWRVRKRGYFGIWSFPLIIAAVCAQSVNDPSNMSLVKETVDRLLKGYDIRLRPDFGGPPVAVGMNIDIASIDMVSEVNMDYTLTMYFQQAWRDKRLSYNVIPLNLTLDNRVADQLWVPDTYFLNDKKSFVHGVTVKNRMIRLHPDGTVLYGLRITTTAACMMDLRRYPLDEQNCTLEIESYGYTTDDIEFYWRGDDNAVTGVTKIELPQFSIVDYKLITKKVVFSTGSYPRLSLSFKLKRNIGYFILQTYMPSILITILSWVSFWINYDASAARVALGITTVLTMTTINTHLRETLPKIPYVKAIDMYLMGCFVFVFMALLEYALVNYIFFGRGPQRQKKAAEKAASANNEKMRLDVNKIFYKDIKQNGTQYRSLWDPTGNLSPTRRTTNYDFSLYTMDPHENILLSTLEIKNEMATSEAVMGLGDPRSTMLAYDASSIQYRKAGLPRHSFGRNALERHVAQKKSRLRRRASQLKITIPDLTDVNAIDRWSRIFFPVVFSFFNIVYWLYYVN
# GABRA1/GABRB3 L291T with gamma-2 subunit: GABA-A receptor alpha-1/beta-3, with gamma-2 subunit (GABRA1/GABRB3, Homo sapiens, UniProt P14867+P28472, L291T)
# HTR2A: 5-hydroxytryptamine receptor 2A (HTR2A, Homo sapiens, UniProt P28223)
# Chain of UniProt P21554 (whole entry, looked up): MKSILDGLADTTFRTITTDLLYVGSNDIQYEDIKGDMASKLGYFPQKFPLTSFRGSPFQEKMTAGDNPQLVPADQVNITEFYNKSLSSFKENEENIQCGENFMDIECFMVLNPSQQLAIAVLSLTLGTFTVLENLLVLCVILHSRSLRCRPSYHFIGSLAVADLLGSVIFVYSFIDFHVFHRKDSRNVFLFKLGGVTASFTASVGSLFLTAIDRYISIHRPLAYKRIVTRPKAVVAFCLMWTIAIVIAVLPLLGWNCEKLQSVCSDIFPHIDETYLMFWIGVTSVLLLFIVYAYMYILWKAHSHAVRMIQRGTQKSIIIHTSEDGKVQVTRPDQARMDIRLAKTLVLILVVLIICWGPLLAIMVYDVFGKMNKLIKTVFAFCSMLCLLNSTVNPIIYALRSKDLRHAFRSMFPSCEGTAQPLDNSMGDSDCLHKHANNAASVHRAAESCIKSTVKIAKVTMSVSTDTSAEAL
# Chain of UniProt P28223 (whole entry, looked up): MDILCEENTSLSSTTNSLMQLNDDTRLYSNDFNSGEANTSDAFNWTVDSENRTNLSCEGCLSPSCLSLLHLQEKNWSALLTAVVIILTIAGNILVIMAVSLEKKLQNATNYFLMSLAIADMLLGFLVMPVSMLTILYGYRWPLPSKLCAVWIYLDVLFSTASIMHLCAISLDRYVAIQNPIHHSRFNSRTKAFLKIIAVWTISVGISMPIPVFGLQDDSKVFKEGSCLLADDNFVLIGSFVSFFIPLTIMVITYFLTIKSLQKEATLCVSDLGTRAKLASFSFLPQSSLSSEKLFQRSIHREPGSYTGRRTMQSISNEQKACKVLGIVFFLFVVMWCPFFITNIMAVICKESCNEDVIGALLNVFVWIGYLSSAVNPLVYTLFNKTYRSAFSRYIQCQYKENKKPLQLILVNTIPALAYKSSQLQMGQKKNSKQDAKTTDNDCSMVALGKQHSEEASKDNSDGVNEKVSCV
# Chain of UniProt Q923Y9 (whole entry, unmodified, looked up): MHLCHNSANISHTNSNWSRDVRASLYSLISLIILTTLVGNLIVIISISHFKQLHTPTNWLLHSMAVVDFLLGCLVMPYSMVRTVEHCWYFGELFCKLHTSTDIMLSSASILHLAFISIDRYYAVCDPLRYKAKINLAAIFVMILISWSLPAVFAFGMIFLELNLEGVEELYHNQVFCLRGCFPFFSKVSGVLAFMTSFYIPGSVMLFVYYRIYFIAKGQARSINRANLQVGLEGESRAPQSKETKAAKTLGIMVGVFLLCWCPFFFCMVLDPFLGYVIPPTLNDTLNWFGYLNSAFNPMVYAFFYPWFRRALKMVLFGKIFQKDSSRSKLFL
# Chain of UniProt Q07812 (whole entry, looked up): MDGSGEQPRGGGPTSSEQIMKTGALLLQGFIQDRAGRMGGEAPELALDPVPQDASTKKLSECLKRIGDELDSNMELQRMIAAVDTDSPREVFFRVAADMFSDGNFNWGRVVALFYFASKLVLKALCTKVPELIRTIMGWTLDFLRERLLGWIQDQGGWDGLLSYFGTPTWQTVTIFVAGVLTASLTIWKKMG
# Chain of UniProt P33533 (whole entry, looked up): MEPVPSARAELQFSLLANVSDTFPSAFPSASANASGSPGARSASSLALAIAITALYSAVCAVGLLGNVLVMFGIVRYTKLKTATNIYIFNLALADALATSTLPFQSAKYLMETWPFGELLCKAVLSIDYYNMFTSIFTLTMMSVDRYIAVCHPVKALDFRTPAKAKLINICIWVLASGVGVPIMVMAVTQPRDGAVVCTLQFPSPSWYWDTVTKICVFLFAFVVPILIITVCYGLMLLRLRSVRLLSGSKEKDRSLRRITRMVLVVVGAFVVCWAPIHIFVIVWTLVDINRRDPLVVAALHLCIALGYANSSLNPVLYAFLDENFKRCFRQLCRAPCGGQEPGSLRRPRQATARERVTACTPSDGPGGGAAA
# Chain of UniProt P23977 (whole entry, looked up): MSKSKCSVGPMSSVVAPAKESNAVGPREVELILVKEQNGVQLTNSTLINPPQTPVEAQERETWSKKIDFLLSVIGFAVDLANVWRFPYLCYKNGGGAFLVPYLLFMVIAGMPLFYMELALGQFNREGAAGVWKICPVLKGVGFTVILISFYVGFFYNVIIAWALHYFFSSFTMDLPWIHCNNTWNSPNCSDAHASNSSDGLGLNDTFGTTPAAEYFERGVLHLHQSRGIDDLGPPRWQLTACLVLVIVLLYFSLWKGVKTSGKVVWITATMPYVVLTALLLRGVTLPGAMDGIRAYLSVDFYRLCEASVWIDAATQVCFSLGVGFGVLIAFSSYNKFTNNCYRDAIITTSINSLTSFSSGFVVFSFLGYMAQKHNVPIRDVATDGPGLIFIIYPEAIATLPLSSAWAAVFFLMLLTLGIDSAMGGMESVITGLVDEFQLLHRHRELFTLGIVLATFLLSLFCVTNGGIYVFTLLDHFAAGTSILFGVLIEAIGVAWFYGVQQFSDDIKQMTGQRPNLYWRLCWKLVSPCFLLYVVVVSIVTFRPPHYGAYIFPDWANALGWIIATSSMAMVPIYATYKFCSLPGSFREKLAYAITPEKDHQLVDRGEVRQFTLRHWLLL
Compound,tested on,test,test system,conditions,scale,endpoint,value
COc1cccc2c1C(=O)c1c(O)c3c(c(O)c1C2=O)C[C@@](O)(C(=O)CO)C[C@@H]3O[C@H]1C[C@H](NC(=O)[C@@H]2CCCN2C(=O)CNC(=O)[C@H](CC(C)C)NC(=O)[C@H](C)NC(=O)CP(=O)(O)O)[C@H](O)[C@H](C)O1,,,"mouse, E0771 tumour-bearing, heart","intravenous, 92 µmol/kg",,AUC,3.7 µM·h
CN[C@@](C)(C[18F])C(=O)O,SK-OV-3 tumour model,,"host not given, liver","1 h, tumour-bearing",,tracer uptake,2.8 %ID/g
C[C@]12C=CC3=C4CCC(=O)C=C4CCC3C1CC[C@@H]2O (stereo partly shown),"Androgen receptor (AR, Homo sapiens, UniProt P10275)","reporter gene, agonist, luciferase",,,,EC50,0.001 µM
CCOC(=O)c1cncn1C(C)c1cccc2ccccc12 (stereo not shown),GABA-A receptor; alpha-1/beta-3/gamma-2,"potentiation of GABA current, positive allosteric modulator, two-electrode voltage clamp",Xenopus oocytes,with: GABA EC5,,EC50,53 µM
CC(C)c1ccc2c(c1)CC[C@H]1[C@](C)(CN)CCC[C@]21C,FF2441,"cell growth or viability, MTS",,48 h,,IC50,5.98 µM
NCCc1ccc(Oc2ccc(O)cc2)c(I)c1,"Trace amine-associated receptor 1 (Rattus norvegicus, UniProt Q923Y9, F153Y)","cAMP accumulation, agonist, cell-based",,TM4 mutant,,EC50,0.038 ± 0.011 µM
CC(N)C12CC3CC(CC(C3)C1)C2 (stereo not shown),Influenza A virus H3N2,"viral replication, MTS",MDCK,,,EC50,0.6 µM
CCOC(=O)c1cncn1C(C)c1cccc2ccccc12 (stereo not shown),GABA-A receptor; alpha-1/beta-3/gamma-2,"GABA current potentiation, positive allosteric modulator, two-electrode voltage clamp",Xenopus oocytes,with: GABA EC5,,EC50,38 µM
CCCCC/C=C\C/C=C\C/C=C\C/C=C\CCCC(=O)NCCF,Sterol carrier protein 2,"NBDS displacement, fluorescent probe displacement",,"50% of maximum displacement, with: NBDS 500 nM",,EC50,6.33 ± 0.48 µM
CC(=O)[C@H]1CC[C@H]2[C@@H]3CC[C@H]4C[C@](C)(O)CC[C@]4(C)[C@H]3CC[C@]12C,GABA-A receptor; alpha-1/beta-2/gamma-2,"GABA current potentiation, positive modulator, two-electrode voltage clamp",Xenopus laevis oocytes,"30 s preincubation, with: GABA EC10",,EC50,0.79 ± 0.63 µM
CNC(C)C(=O)c1ccccc1 (stereo not shown),"Slc6a3 (Rattus norvegicus, UniProt P23977)","substrate release, releasing agent",rat brain synaptosomes,,,EC50,0.021 to 0.025 µM
CCCCCn1cc(C(=O)c2cccc3ccccc23)c2ccccc21,"CNR1 (Homo sapiens, UniProt P21554)","GIRK channel fluorescence, agonist",AtT20 expressing CB1,,,EC50,0.0463 µM and 0.046 µM
c1ccc(CCN2CCCCC2)cc1,"GABA receptor, rat",binding,rat brain,with: [3H]GABA 5 nM,,Ki,> 10 µM
CC(=O)[O][Hg][c]1ccccc1,"BAX (Homo sapiens, UniProt Q07812)",liposome permeabilization,,with: 100 nM BAX,,EC50,0.2 µM
COC(=O)[C@H](C)COC(=O)c1cncn1[C@H](C)c1ccccc1,GABRA1/GABRB3 L291T with gamma-2 subunit,"ion current, agonist, two-electrode voltage clamp",Xenopus oocytes,,baseline: 100 µM GABA,EC50,35 ± 12 µM
CCOC(=O)c1cncn1[C@H](C)c1ccc(OC)cc1,GABA-A receptor; alpha-1/beta-3/gamma-2,"potentiation of GABA current, positive allosteric modulator, two-electrode voltage clamp",Xenopus oocytes,with: GABA EC5,,EC50,30 µM
CCCCC/C=C\C/C=C\C/C=C\C/C=C\CCCC(=O)OCCN,Sterol carrier protein 2,"NBDS displacement, fluorescent probe displacement",,"50% of maximum displacement, with: NBDS 500 nM",,EC50,3.64 ± 0.04 µM
C[C@@]1(O)CC[C@H]2[C@H](CC[C@@H]3[C@@H]2CC[C@]2(C)[C@@H](C(=O)Cn4cc(C#N)cn4)CC[C@@H]32)C1,GABA-A receptor; alpha-1/beta-2/gamma-2,"GABA current potentiation, positive modulator, two-electrode voltage clamp",Xenopus laevis oocytes,"30 s preincubation, with: GABA EC10",,EC50,0.32 ± 0.16 µM
COC(=O)COC(=O)c1cncn1[C@H](C)c1ccccc1,GABRA1/GABRB3 L291T with gamma-2 subunit,"ion current, agonist, two-electrode voltage clamp",Xenopus oocytes,,baseline: 100 µM GABA,EC50,38 ± 2 µM
C[C@H]1CNCCc2ccc(Cl)cc21,,,"Sprague-Dawley rat, male, plasma","subcutaneous, 0.5 mg/kg, 120 min",,plasma concentration,4.83 ± 0.13 ng/mL
Cc1ncc2n1-c1ccc(Cl)cc1C(c1ccccc1F)=NC2,,,"healthy men, plasma","oral, 7.5 mg, day 19, arithmetic mean, with: 7 days post amenamevir",,AUC(0-inf),130 ng·h/mL
COc1ccc2[nH]cc(CCNC(C)C)c2c1,HTR2A,"calcium signal, agonist",,,,EC50,0.00924 µM
CCCCC/C=C\C/C=C\C/C=C\C/C=C\CCCC(=O)NCCO,Sterol carrier protein 2,"NBDS displacement, fluorescent probe displacement",,"50% of maximum displacement, with: NBDS 500 nM",,EC50,1.54 ± 0.1 µM
CNC(C)Cc1ccc2c(c1)OCO2 (racemic),,"Drug Effects Questionnaire, measured: Feel High",human,"oral, 0.75 mg/kg, mean over session, unit not given",baseline: pre-dose baseline,subjective drug effect rating,20.6
C=C1C[C@@H]2[C@H](CC[C@]3(C)C(=O)CC[C@@H]23)[C@@]2(C)C=CC(=O)C=C12,,LC-MS/MS,"postmenopausal breast cancer women, plasma","oral, 25 mg/day, 2 h, CYP3A4*22 non-carriers, outlier excluded",,median plasma concentration,7.7 ng/mL
COC(=O)CCOC(=O)c1cncn1[C@@H](c1ccccc1)C(C)C,GABRA1/GABRB3 L291T with gamma-2 subunit,"ion current, agonist, two-electrode voltage clamp",Xenopus oocytes,,baseline: 100 µM GABA,EC50,46 ± 6 µM
CCOC(=O)c1cncn1[C@H](C)c1cccc(OC(C)C)c1,GABA-A receptor; alpha-1/beta-3/gamma-2,"potentiation of GABA current, positive allosteric modulator, two-electrode voltage clamp",Xenopus oocytes,with: GABA EC5,,EC50,38 µM
COC(=O)C(C)(C)OC(=O)c1cncn1[C@H](C)c1ccccc1,GABRA1/GABRB3 L291T with gamma-2 subunit,"ion current, agonist, two-electrode voltage clamp",Xenopus oocytes,,baseline: 100 µM GABA,EC50,1.6 ± 0.4 µM
CN1CC[C@]2(c3cccc(O)c3)Cc3nc4ccccc4cc3C[C@H]2C1,"Oprd1 (Rattus norvegicus, UniProt P33533)",agonist,"ethanol-trained rat, rat cerebral cortex membranes",vehicle-pretreated,,EC50,6.4 ± 0.9 µM
COC(=O)CCOC(=O)c1cncn1[C@H](C)c1ccccc1,GABRA1/GABRB3 L291T with gamma-2 subunit,"ion current, agonist, two-electrode voltage clamp",Xenopus oocytes,,baseline: 100 µM GABA,EC50,20 ± 2 µM
CP(=O)(O)CCC(N)C(=O)O (stereo not shown),Chenopodium album,,,"500 g/ha, 13 days, CHEAL, post-emergence spray","baseline: untreated (0%), complete kill (100%)",herbicidal activity,100%
CCN(CC)CCc1c[nH]c2ccc(OC)cc12,HTR2A,"β-arrestin recruitment, agonist",,,,EC50,1.06 µM
N=C(N)NCCC[C@@H]1NC(=O)[C@H](CCCCNC(=O)[C@H](CC(=O)O)NC(=O)[C@H](CC(=O)O)NC(=O)[C@H](CC(=O)O)NC(=O)CC[C@H](NC(=O)CCOCCOCCOCCOCCNC(=O)c2ccc(NN)nc2)C(=O)N[C@@H](CC(=O)O)C(=O)N[C@@H](CC(=O)O)C(=O)N[C@@H](CC(=O)O)C(=O)NCCCC[C@@H]2NC(=O)[C@@H](Cc3ccccc3)NC(=O)[C@H](CC(=O)O)NC(=O)CNC(=O)[C@H](CCCNC(=N)N)NC2=O)NC(=O)[C@@H](Cc2ccccc2)NC(=O)[C@H](CC(=O)O)NC(=O)CNC1=O [technetium-99m labelled],,γ-counting,"female athymic nude mice, U-87 MG xenograft, eyes","intravenous, 0.5 h",,tissue uptake,0.89 ± 0.25 %ID/g
CNC(C)C(=O)c1ccccc1 (stereo not shown),"SLC6A4 (Homo sapiens, UniProt P31645)","[3H]5-HT release, releaser",HEK293 expressing target,,,EC50,54 ± 17 µM
CC(=O)[C@H]1CC[C@H]2[C@@H]3CC[C@H]4C[C@H](O)CC[C@]4(C)[C@H]3CC[C@]12C,GABA-A receptor; alpha-1/beta-2/gamma-2,"GABA current potentiation, positive modulator, two-electrode voltage clamp",Xenopus laevis oocytes,"30 s preincubation, with: GABA EC10",,EC50,0.11 ± 0.01 µM
[123I]c1cncc(OC[C@@H]2CCN2)c1,,SPECT,"human, cerebellum","intravenous bolus plus infusion, 5.2 mCi",baseline: tissue over plasma,tissue/plasma ratio,24.9
COC(=O)[C@H](C)OC(=O)c1cncn1[C@H](C)c1ccccc1,GABRA1/GABRB3 L291T with gamma-2 subunit,"ion current, agonist, two-electrode voltage clamp",Xenopus oocytes,,baseline: 100 µM GABA,EC50,9.4 ± 0.8 µM
